# Published values collected from several papers.
# Each line is one published result; not all experiments were run side by side. Numbers after ± are the reported error.
Molecule,target or system,test,test system,setting,how to read,endpoint,result
CNC(C)Cc1ccc2c(c1)OCO2 (racemic),,"visual analog scale, measured: Lonely",human,"oral, 1.5 mg/kg, mean over session, unit not given",baseline: pre-dose baseline,mood rating,11.1
Cc1ccc(-c2nccnc2C(=O)O)cc1,Mycobacterium tuberculosis variant bovis BCG,microbial growth,ATCC35734 BCG,5 days,,IC50,~1000 µM
N#Cc1ccc(-c2ccc(-c3cccs3)o2)c(F)c1,Salmonella enterica,sodium azide mutagenicity,TA1535,"20 µM, 48 h, added: sodium azide 2 µg/plate after pre-exposure",,inhibition,77%
C[C@H](Cn1cnc2c(N)ncnc21)OCP(=O)(O)O,human alphaherpesvirus 2,virus production,human monocytes/macrophages,"500 µg/mL, 6 days",,inhibition,100%
N=C(N)c1ccc(-c2ccc(-c3ccco3)o2)cc1F,Salmonella enterica,,TA1535,"10 µM, 48 h, added: sodium azide co-exposure",baseline: sodium azide alone,mutant frequency,19%
CC(C)c1ccc2c(c1)CC[C@H]1[C@](C)(CN)CCC[C@]21C,HFK normal keratinocytes,"cell viability, MTS",,48 h,,IC50,8.95 ± 0.57 µM
OC(CNc1ccccc1)Cn1c2ccc(Br)cc2c2cc(Br)ccc21 (stereo not drawn),,,"middle-aged rat, dentate gyrus",dose not given,,neurogenesis,no effect
neuropeptide Y,,,"rat, plasma","intratesticular, 5 µg/kg, added: hCG",,cumulative testosterone release,8.8 ± 1.8 ng/mL
CCCCCc1cc(O)c2c(c1)OC(C)(C)[C@@H]1CCC(C)=C[C@@H]21,,drug discrimination,"C57BL/6J mice, female","intraperitoneal, first dose-effect curve",,ED50,1.76 mg/kg
COc1cc(/C=C(\C#N)C(=O)c2ccc(O)c(O)c2)cc(I)c1O,HEK293 expressing MOR,"morphine-induced cAMP overshoot, HTRF cAMP",,"1 µM, added: NKH 477 25 nM",baseline: morphine control,efficacy,67%
N#Cc1ccc(-c2ccc(-c3ccco3)o2)cc1F,Salmonella enterica,sodium azide mutagenicity,TA1535,"20 µM, 48 h, added: sodium azide 2 µg/plate co-exposure",,inhibition,97%
Tricresyl phosphate,human iPSC-derived cardiomyocytes,beating frequency,,30 min,,lowest active concentration,3 µM
N#Cc1ccc(-c2ccc(-c3cccs3)o2)cc1F,Salmonella enterica,sodium azide mutagenicity,TA1535,"20 µM, 48 h, added: sodium azide 2 µg/plate after pre-exposure",,inhibition,100%
O=C(CNC(=O)c1cccc2ccccc12)Nc1ccccc1Oc1ccccc1,"NCI60 panel, 60 cell lines",,,median over cell lines,,GI50,~0.33 µM
CCCCCCCCCCCCCCCCCCOCC(COP(=O)([O-])OCC[N+](C)(C)C)OC (stereo not drawn),HEK293 expressing MOR,"morphine-induced cAMP overshoot, HTRF cAMP",,"1 µM, added: NKH 477 25 nM",baseline: morphine control,efficacy,144%
O=C(O)c1cccnc1,Mycobacterium tuberculosis variant bovis BCG,microbial growth,ATCC35734 BCG,5 days,,IC50,700 to 900 µM
CN[C@@](C)(C[18F])C(=O)O,,,"SCID mouse DU-145 xenograft, liver","60 min, post injection",,tissue uptake,4.9 ± 0.6 %ID/g
N#Cc1ccc(-c2ccc(-c3cccs3)s2)cc1F,Salmonella enterica,sodium azide mutagenicity,TA1535,"20 µM, 48 h, added: sodium azide 2 µg/plate co-exposure",,inhibition,104 ± 23.3%
CCc1ccc2c(O)c3c(cc2c1C(=O)OC)C(=O)c1c(O)ccc(O)c1C3=O,influenza virus,viral replication,MDCK,72 h,,IC50,> 10 µM
CP(=O)(O)CCC(N)C(=O)O (stereo not drawn),Eleusine indica,,,"125 g/ha, 13 days, ELEIN, post-emergence spray","baseline: untreated (0%), complete kill (100%)",herbicidal activity,100%
N=C(N)c1ccc(-c2ccc(-c3cccs3)o2)c(F)c1,Salmonella enterica,,TA1535,"10 µM, 48 h, added: sodium azide after pre-exposure",baseline: sodium azide alone,mutant frequency,72%

# Some of these lines once more:
Molecule,target or system,test,test system,setting,how to read,endpoint,result
N#Cc1ccc(-c2ccc(-c3ccco3)o2)cc1F,Salmonella enterica,sodium azide mutagenicity,TA1535,"20 µM, 48 h, added: sodium azide 2 µg/plate co-exposure",,inhibition,97%
Tricresyl phosphate,human iPSC-derived cardiomyocytes,beating frequency,,30 min,,lowest active concentration,3 µM
